Results collected from several papers.
Numbers after ± are the reported error.

Structure (SMILES) | tested on | test | test system | setting | measurement | value
C#Cc1ccc2c(c1)C(c1ccccn1)=NCc1c(-c3cnco3)ncn1-2 |  |  | Sprague Dawley rat, plasma | oral, 2 mg/kg, 0 to 24 h, cassette dosing | AUC(0-t) | 2160 ng·h/mL
COc1ccc2c(c[n+](C)c3c4cc5c(cc4ccc23)OCO5)c1OC |  | LC-MS/MS | rat, plasma | dose not given | AUC(0-t) | 60100 ng·h/mL
CN1CC[C@]23c4c5ccc(O)c4O[C@H]2[C@@H](O[C@@H]2O[C@H](C(=O)O)[C@@H](O)[C@H](O)[C@H]2O)C=C[C@H]3[C@H]1C5 |  | LC-MS/MS | male Sprague-Dawley rat, whole blood | intraperitoneal, 10 mg/kg of heroin, up to 180 min | AUC(0-t) | 10.2 ± 2.67 ng·h/mL
COc1ccc2c(c1OC)C(=O)OC2C1c2cc3c(cc2CCN1C)OCO3 (single isomer, unassigned; (+)) | Plasmodium falciparum |  | W2 |  | IC50 | 5.01 µM
Cc1cc(C)nc(Nc2ncc(C(=O)NCCc3c(C)[nH]c4ccccc34)cn2)c1 |  |  | male rat, plasma | oral, 1000 mg/kg/day, day 7 | AUC(0-t) | 32300 ng·h/mL
CC(=O)O[C@H]1C=C[C@H]2[C@H]3Cc4ccc(O)c5c4[C@@]2(CCN3C)[C@H]1O5 |  | LC-MS/MS | male Sprague-Dawley rat, whole blood | intraperitoneal, 10 mg/kg of heroin, up to 180 min | AUC(0-t) | 1140 ± 164 ng·h/mL
CN1[C@@H]2CC[C@H]1C[C@@H](OC(=O)C(CO)c1ccccc1)C2 (stereo partly shown) | Plasmodium falciparum |  | W2 |  | IC50 | 5.01 µM
Cc1ccc(S(=O)(=O)Nc2c(N[C@H]3CC[C@H](NC(=O)Nc4ccc(F)c(Cl)c4)CC3)c(=O)c2=O)cc1 |  |  | rat, plasma | intravenous, 10 mg/kg | AUC(0-t) | 1.84 µM·h
CC(=O)c1c(C)c2cnc(Nc3ccc(C4CCN(CCS(C)(=O)=O)CC4)cn3)nc2n(C2CCCC2)c1=O |  |  | Sprague-Dawley rat, male | oral, 60 mg/kg, day 28, repeated dosing 4 weeks | AUC(0-t) | 34800 ng·h/mL
C=CC[N+]1([C@H]2C[C@H]3[C@@H]4CC[C@H]5C[C@H](O)[C@@H](N6CCOCC6)C[C@]5(C)[C@H]4CC[C@]3(C)[C@H]2OC(C)=O)CCCC1 |  |  | Sprague Dawley rat, plasma | intravenous, dose not given, together with: sugammadex 5 mg/kg ODD | AUC(0-t) | 32.9 ng·h/mL
CC(C)[C@@H](CN1CC[C@@](C)(c2cccc(O)c2)[C@@H](C)C1)NC(=O)[C@@H]1Cc2ccc(O)cc2CN1C |  |  | rat, plasma | ip, 5 mg/kg, to 168 h | AUC(0-t) | 1100 ng·h/mL
CN1CC[C@]23c4c5ccc(O[C@@H]6O[C@H](C(=O)O)[C@@H](O)[C@H](O)[C@H]6O)c4O[C@H]2[C@@H](O)C=C[C@H]3[C@H]1C5 |  |  | Sprague-Dawley rat, whole blood | intraperitoneal, 10 mg/kg heroin, up to 180 min, single heroin dose alone | AUC(0-t) | 3450 ± 330 ng·h/mL
CCC[C@@](N)(CO)CCc1ccc(OCCCCCC(C)C)cc1 |  |  | male Sprague-Dawley rat, plasma | oral, 100 mg/kg | AUC(0-t) | 16.8 µM·h
